Experimental data pooled from the literature.
Each line is one published result; not all experiments were run side by side.
HLA class I histocompatibility antigen, A alpha chain allele A*26:01: HLA class I histocompatibility antigen, A alpha chain, allele A*26:01 (Homo sapiens, UniProt P04439)
HLA class I histocompatibility antigen, A alpha chain allele A*01:01: HLA class I histocompatibility antigen, A alpha chain, allele A*01:01 (Homo sapiens, UniProt P04439)
HLA class I histocompatibility antigen, A alpha chain allele A*24:02: HLA class I histocompatibility antigen, A alpha chain, allele A*24:02 (Homo sapiens, UniProt P04439)
HLA class I histocompatibility antigen, A alpha chain allele A*30:02: HLA class I histocompatibility antigen, A alpha chain, allele A*30:02 (Homo sapiens, UniProt P04439)

| SMILES | target | test | conditions | IC50 |
| --- | --- | --- | --- | --- |
| CSCC[C@H](NC(=O)[C@H](Cc1ccc(O)cc1)NC(=O)[C@H](CC(C)C)NC(=O)[C@H](CCSC)NC(=O)[C@H](CO)NC(=O)CNC(=O)[C@H](CC(C)C)NC(=O)[C@H](CC(C)C)NC(=O)[C@@H](N)CCSC)C(=O)O | HLA class I histocompatibility antigen, A alpha chain allele A*26:01 | peptide-MHC binding, radioligand competition binding |  | 45.5 µM |
| CC(C)[C@H](NC(=O)CNC(=O)CNC(=O)[C@@H](NC(=O)[C@H](CO)NC(=O)[C@@H]1CCCN1C(=O)[C@H](C)NC(=O)[C@H](CO)NC(=O)[C@H](CCCCN)NC(=O)[C@@H](N)CCCNC(=N)N)[C@@H](C)O)C(=O)O | HLA class I histocompatibility antigen, A alpha chain, allele A*02:06 (Homo sapiens, UniProt P04439) | binding |  | > 38.7 µM |
| CC(C)C[C@H](NC(=O)[C@@H](N)CCC(=O)O)C(=O)N1CCC[C@H]1C(=O)N[C@@H](CC(=O)O)C(=O)N[C@@H](CCC(=O)O)C(=O)N[C@@H](Cc1ccccc1)C(=O)N[C@H](C(=O)N[C@H](C(=O)N[C@H](C(=O)N[C@H](C(=O)N[C@H](C(=O)O)C(C)C)[C@@H](C)O)C(C)C)C(C)C)C(C)C | HLA class I histocompatibility antigen, A alpha chain allele A*26:01 | peptide-MHC binding, radioligand competition binding |  | 0.072 µM |
| CC(C)C[C@H](NC(=O)[C@@H](NC(=O)[C@H](Cc1c[nH]cn1)NC(=O)[C@H](CC(=O)O)NC(=O)[C@H](CC(N)=O)NC(=O)[C@H](CCC(N)=O)NC(=O)[C@H](C)N)C(C)C)C(=O)N[C@@H](Cc1ccc(O)cc1)C(=O)N[C@@H](Cc1ccc(O)cc1)C(=O)O | HLA class I histocompatibility antigen, A alpha chain allele A*01:01 | binding |  | 14.9 µM |
| CSCC[C@H](NC(=O)[C@@H](NC(=O)[C@@H](NC(=O)[C@H](CC(C)C)NC(=O)[C@H](CC(N)=O)NC(=O)[C@H](CC(N)=O)NC(=O)[C@@H](NC(=O)[C@H](C)NC(=O)[C@@H](N)CC(C)C)[C@@H](C)O)C(C)C)C(C)C)C(=O)O | HLA class I histocompatibility antigen, A alpha chain allele A*26:01 | peptide-MHC binding, radioligand competition binding |  | > 70 µM |
| CC(C)[C@H](NC(=O)[C@@H](N)Cc1ccc(O)cc1)C(=O)N[C@@H](Cc1ccc(O)cc1)C(=O)N[C@@H](CCC(N)=O)C(=O)N[C@@H](Cc1c[nH]cn1)C(=O)N1CCC[C@H]1C(=O)N[C@@H](Cc1c[nH]cn1)C(=O)N[C@H](C(=O)N[C@@H](Cc1ccc(O)cc1)C(=O)O)[C@@H](C)O | HLA class I histocompatibility antigen, A alpha chain allele A*24:02 | binding |  | 59.4 µM |
| CC[C@H](C)[C@H](NC(=O)[C@H](CCC(N)=O)NC(=O)[C@@H]1CCCN1C(=O)[C@H](Cc1ccc(O)cc1)NC(=O)[C@@H]1CCCN1C(=O)[C@@H](N)CC(C)C)C(=O)N[C@@H](CC(C)C)C(=O)N[C@@H](CC(C)C)C(=O)N[C@@H](CC(C)C)C(=O)O | HLA class I histocompatibility antigen, A alpha chain allele A*24:02 | binding, competitor |  | 24.1 µM |
| CSCC[C@H](NC(=O)[C@H](CO)NC(=O)[C@H](Cc1c[nH]c2ccccc12)NC(=O)[C@@H]1CCCN1C(=O)[C@H](CCCCN)NC(=O)[C@H](CCC(N)=O)NC(=O)[C@H](Cc1ccccc1)NC(=O)[C@H](CCSC)NC(=O)[C@@H](N)CCCNC(=N)N)C(=O)O | HLA class I histocompatibility antigen, A alpha chain allele A*24:02 | binding |  | 4.78 µM |
| CSCC[C@H](NC(=O)[C@H](CCC(=O)O)NC(=O)[C@H](CCC(=O)O)NC(=O)[C@@H](N)CCCNC(=N)N)C(=O)N[C@@H](CCC(=O)O)C(=O)N[C@H](C(=O)N[C@@H](Cc1c[nH]cn1)C(=O)N[C@@H](CCC(=O)O)C(=O)N[C@@H](CC(C)C)C(=O)O)C(C)C | HLA class I histocompatibility antigen, A alpha chain allele A*30:02 | binding, competitor, radioligand competition | two days, room temperature, HLA-A*30:02 | > 40 µM |
| CC[C@H](C)[C@H](NC(=O)[C@@H](N)CCC(=O)O)C(=O)N[C@@H](CCCCN)C(=O)N[C@@H](CCC(=O)O)C(=O)N[C@@H](CO)C(=O)N[C@H](C(=O)N[C@@H](CCC(N)=O)C(=O)N[C@H](C(=O)N[C@@H](Cc1ccccc1)C(=O)O)[C@@H](C)O)C(C)C | HLA class I histocompatibility antigen, A alpha chain allele A*26:01 | peptide-MHC binding, radioligand competition binding |  | 0.0078 µM |
| CC[C@H](C)[C@H](NC(=O)[C@@H]1CCCN1C(=O)[C@H](CC(=O)O)NC(=O)[C@H](CCSC)NC(=O)[C@@H](N)Cc1ccc(O)cc1)C(=O)N1CCC[C@H]1C(=O)N[C@@H](Cc1c[nH]cn1)C(=O)N[C@@H](CCC(N)=O)C(=O)N[C@@H](Cc1ccc(O)cc1)C(=O)O | HLA class I histocompatibility antigen, A alpha chain allele A*01:01 | binding |  | 0.097 µM |
| CC[C@H](C)[C@H](NC(=O)[C@H](CCCNC(=N)N)NC(=O)CNC(=O)[C@@H](NC(=O)[C@@H]1CCCN1C(=O)[C@@H](N)CCSC)[C@@H](C)CC)C(=O)N[C@@H](C)C(=O)N[C@@H](CCC(=O)O)C(=O)N[C@@H](CS)C(=O)N[C@H](C(=O)N[C@@H](CC(C)C)C(=O)O)[C@@H](C)CC | HLA class I histocompatibility antigen, A alpha chain allele A*30:02 | binding, competitor, radioligand competition | two days, room temperature, HLA-A*30:02 | > 40 µM |

A few entries again:
| SMILES | target | test | conditions | IC50 |
| --- | --- | --- | --- | --- |
| CC[C@H](C)[C@H](NC(=O)[C@@H](N)CCC(=O)O)C(=O)N[C@@H](CCCCN)C(=O)N[C@@H](CCC(=O)O)C(=O)N[C@@H](CO)C(=O)N[C@H](C(=O)N[C@@H](CCC(N)=O)C(=O)N[C@H](C(=O)N[C@@H](Cc1ccccc1)C(=O)O)[C@@H](C)O)C(C)C | HLA class I histocompatibility antigen, A alpha chain allele A*26:01 | peptide-MHC binding, radioligand competition binding |  | 0.0078 µM |
| CC[C@H](C)[C@H](NC(=O)[C@@H]1CCCN1C(=O)[C@H](CC(=O)O)NC(=O)[C@H](CCSC)NC(=O)[C@@H](N)Cc1ccc(O)cc1)C(=O)N1CCC[C@H]1C(=O)N[C@@H](Cc1c[nH]cn1)C(=O)N[C@@H](CCC(N)=O)C(=O)N[C@@H](Cc1ccc(O)cc1)C(=O)O | HLA class I histocompatibility antigen, A alpha chain allele A*01:01 | binding |  | 0.097 µM |
